Measurements collected from several papers.
Each numbered part is a random draw from the data of one study; scales do not carry over between parts. Positions count from the first letter of the parent shown.

Set 1
Target: Fragile X messenger ribonucleoprotein 1, C-terminal low-complexity region (Fmr1, Mus musculus, UniProt P35922)
Technique: RNA Bind-n-Seq
Molecule type: RNA
Sample: in vitro
Concentration: 200 nM
Notes: whole 134-nt RNA, ends assumed
With: 150 mM LiCl
Relative to: input library
Reading: higher = stronger binding
Measurement: log2 enrichment
All molecules: 7-deaza-guanosine replaces G
Shared flanks, not repeated: GGGAGUUCUACAGUCCGACGAUC … UGGAAUUCUCGGGUGUCAAGG
CCUGUGCUACACAUCGUAUGUACCGAAUCGGGGAGGGGUUUUUUUGGGGUUUUUUUGGGGAAAGUAUUAUGUUACGCCGUUCGGAUCUGC: 1.23
ACCAUGCAGGUGGGCAUCUUUGGGAAGUGGGGCAAGGGGGGGAUAGGGAGGGGGGUAACACUUUGGGAACAGGUGGUCCCAAAUCGUUUC: 1.22
UACUAUCAAACAAUCGGAAACCACGCGUCCUACUACAAAGAUGCUCUGCGGUUUUUGGGCUGUGUUGACAUCAAGGAUCUACCAGGUAAC: -1.78
CCUGUGCUACACAUCGUAUGUACCGAAUCGGGCCCCCCGGGGCCCCCCGGGCCCCCCGGGGAAAGUAUUAUGUUACGCCGUUCGGAUCUG: -2.85
CCUCAAGUCCUGUGCUACACAUCGUAUGUACCGAAUCGGCGGGGCGGGCGGGGAAAGUAUUAUGUUACGCCGUUCGGAUCUGCACUUCCA: -0.7
UGGCCCUGGUGGCAUGCGGGGAGGAAGAGGUGGCCUCAUGGAUCGUGGUGGUCCCGGUGGAAUGUUCAGAGGUGGCCGUGGUAGAGACAG: -0.824
UGUCUGCGGACCUGGUUUCAGCGCUGGUGGGACUGCAGCCGGAGGUCAGCCCAGCAGAGACUGCAGCUGGAGAGGGCAGUGCAACACCAC: -0.938
UCAAGUCCUGUGCUACACAUCGUAUGUACCGAAUCGGGUUUUUGGGUGGGAGGGAAAGUAUUAUGUUACGCCGUUCGGAUCUGCACUUCC: -1.56

Set 2
Target: CCNA2, cyclin fold, Cln2 fusion (human)
Technique: yeast growth competition, sequencing
Sample: yeast
Notes: strong parent motif
Relative to: not given
Reading: higher = stronger binding
Measurement: normalised enrichment score
Parent: E2F1 docking peptide (human); PPVKRRLDLETDH; partner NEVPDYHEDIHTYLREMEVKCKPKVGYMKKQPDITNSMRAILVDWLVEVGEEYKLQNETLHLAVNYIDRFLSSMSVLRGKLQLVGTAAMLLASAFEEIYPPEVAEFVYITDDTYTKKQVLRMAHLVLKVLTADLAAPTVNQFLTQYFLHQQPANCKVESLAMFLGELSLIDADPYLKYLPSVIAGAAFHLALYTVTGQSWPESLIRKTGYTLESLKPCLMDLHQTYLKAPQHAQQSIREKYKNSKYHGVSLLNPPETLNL
D12E: 4.54
D8E: 3.39
D8Y: 3.13
D8F: 5.87
T11Y: 6.17
L7M: 0.363
L7C: 0.385

Set 3
Target: Sal-like protein 4, full length isoform B (SALL4, Homo sapiens, UniProt Q9UJQ4-2, residues 1-616)
Technique: universal PBM
Molecule type: double-stranded DNA, one strand shown
Sample: in vitro
Concentration: not given
Notes: 8-mer, flanks averaged, mean of replicates
Reading: higher = stronger binding
Measurement: E-score
Construct (chain): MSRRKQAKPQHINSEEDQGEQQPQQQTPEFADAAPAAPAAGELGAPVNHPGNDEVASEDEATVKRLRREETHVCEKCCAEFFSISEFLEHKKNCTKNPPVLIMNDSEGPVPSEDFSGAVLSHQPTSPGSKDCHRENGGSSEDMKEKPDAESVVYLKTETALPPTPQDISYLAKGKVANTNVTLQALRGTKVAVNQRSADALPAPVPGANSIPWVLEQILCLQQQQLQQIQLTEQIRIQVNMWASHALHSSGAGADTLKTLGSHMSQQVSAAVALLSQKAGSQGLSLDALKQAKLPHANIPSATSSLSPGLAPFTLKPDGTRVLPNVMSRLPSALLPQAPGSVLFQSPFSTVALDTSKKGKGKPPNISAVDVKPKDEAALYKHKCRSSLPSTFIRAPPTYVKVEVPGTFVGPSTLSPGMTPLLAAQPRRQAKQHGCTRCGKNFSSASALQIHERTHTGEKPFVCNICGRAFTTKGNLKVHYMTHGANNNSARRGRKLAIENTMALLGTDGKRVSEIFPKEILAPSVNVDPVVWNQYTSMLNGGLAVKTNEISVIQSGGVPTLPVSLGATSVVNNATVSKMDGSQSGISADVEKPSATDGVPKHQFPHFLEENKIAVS
TATAGTAA: 0.295
ACTATAGT: 0.305
ACAGTGTG: 0.069
AAATTCTA: 0.234
CTGGGAAC: -0.203
CACTCTGA: -0.22
CACCTGCA: -0.181
ACATTAAC: 0.213
TAAGTCGA: 0.127
CCAAAAAA: 0.305
ACATGTCA: 0.0874
AAGACACG: 0.113
ACCCTAAT: 0.0693

Single results of other studies
PhoQ, residues 284 288 289 292 302 303 SIHMAM — fold induction (PhoP, residues 12 14 15 18 19 VQALL (Escherichia coli, UniProt P23836); Sort-seq, item: YFP reporter; E. coli; PhoQ-PhoP variant library, with: 10 µM Mg2+; relative to: high Mg2+ state, higher = stronger signaling): 7.68

Excerpt of the above (set 2):
D12E: 4.54
T11Y: 6.17
D8E: 3.39
